# Results gathered from unrelated publications.
# Parts stem from different laboratories: compare values within a part only.

# Study 1 — method: RNA Bind-n-Seq; form: RNA; medium: in vitro; concentration: not given; setting: RNA with constant flanks, ends assumed; baseline: input RNA pool; direction: higher = stronger binding
# Target: RING finger protein unkempt homolog, zinc fingers 1-6, GST-SBP tag (UNK, Homo sapiens, UniProt Q9C0B0, residues 30-357)
# Shared flanks, not repeated: GGGAGUUCUACAGUCCGACGAUC … CAACAGAGGAUUGAGCAUCA
# Construct (chain): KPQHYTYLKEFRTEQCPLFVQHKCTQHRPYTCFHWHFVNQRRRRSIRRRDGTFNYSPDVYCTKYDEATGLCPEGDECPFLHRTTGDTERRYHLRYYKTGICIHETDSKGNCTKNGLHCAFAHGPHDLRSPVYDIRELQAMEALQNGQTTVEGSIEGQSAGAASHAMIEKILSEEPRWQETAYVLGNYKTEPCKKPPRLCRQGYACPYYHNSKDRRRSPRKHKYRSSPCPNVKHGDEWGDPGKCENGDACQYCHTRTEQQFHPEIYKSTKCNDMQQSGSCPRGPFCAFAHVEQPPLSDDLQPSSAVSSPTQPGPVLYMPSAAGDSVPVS
Sequence,bound/input enrichment [ratio]
ACUGCUCCAUCGAUCCCUUCACAUUUGUCUCCUGGUUUACGAGAUGUGGCUCUUCGUUGUUCCGAACUUCAACCUCAGGACAGACCUCCAUCAAGAGAGCUACUGAAGCAUCCAGUCUUU,0.147
GUUUUGCCAAAACCUCGGAUGCGUGGCCUUCUGGCCAGGCGUCUGCGAAAUCAUAUGGCUGCCGCAUUCGUGCUAUCCCUGGGGGUUGCAGCUUUGUAUAAGUUUCGUGUGGCUGAUCAA,0.099
AACAAGACAGACUUGCUCGAGGAGAAAGUGCAAGUUGUUAGCAUCAAAGACUAUUUCCCCGAAUUUGAAGGGGACCCCCACUGCUUAAGAGACGUCCAAAAGUUUCUGGUGGAAUGCUUC,0.203
CCAUUCUCUUAGUGAUGGGUUGGAUGAAGUCCAAAAAGCAGAAAUGAAAGCCUACAUGGAAUCCGUCAACAAUAUGCUGCUGACUGCAGAGGUAUAAGAGGAUAAGGCUUGAGAUCAGAC,0.135
AAUAAAAUGUACAAAUUUGUUGUGUUUUUUUAUGUUCUAAUAAUACUGAGACUUCCCGGUCUCCGGUUAAUUUUUAGGAAGAUCUUGCAUGCCAUCAGGAGUAAAUUUUAUUGUGGUUCU,0.755
AUAUAUAUUCAUUUGCACUUACGUGAAACACAAACUUUGCUCUACAAAAUUUCGUGUUUCUCCGUGAUUUUAAAAUGCAUGUAUUGCAUGUAAAGGAAAACCAUUACAAUUAAUGUUUAU,0.169
GACCGCCUGGUAGCCUUUCCUACUAGAGUAGCAGGUGGUGUUGGAAUUACCUGUUGGAUUUCCGUCUGUAACAAAGUUGUCGCUAUUGUGCUUCAUCCGUUCAGCUGAACAGGAGGAUGG,0.255
GCCACAUUUGCUAUUUCCAUCCUGCAACAGUUGGAGAUUGAGUUCAAGGAGACCCAAGCACCCGUAUUGGCCCCCACCAGAGAACUGGCUCAACAGAUCCAAAAGGUAAUUUUGGCUCUU,0.126
UAAAAAGUGUUUUGAAUUGUGUCUUAAUCUCUCCAUAUUCAACUAUUCUUCAUUUACAACAACCGUGACACCAGUAAUUAUGAGAGGCUGUCAUAUAUCAAAGCAGCUCAGGUGGGAUCA,0.607
CAGCAGUCAUCUCUCAGUAGGGACUCACAGGGUCAUGGGCGUGACCUGUCUGCGGCAGGAACCGGCCUUCUUGCUGCUGCUACCCAGUCUUUAAGUAUGCCAGCAUCUCUUGGAAGGAUG,0.0554
UUGUGUAGAGCCCAACACGAACUUCACUUCCAAGCUGCCACCUAUCUCUGCCUUUUGAGCCGCAUCCGGCAACAUGUAGCCCUUCAUCAGGAAUUUCAUGGCAAGGGUGAGCGUUCAGUG,0.188

# Study 2 — method: RNA Bind-n-Seq; form: RNA; medium: in vitro; concentration: 365 nM; baseline: no-protein control; direction: higher = stronger binding
# Target: RNA binding protein fox-1 homolog 2, RRM domain, GST-SBP tag (RBFOX2, Homo sapiens, UniProt O43251-10, residues 100-194)
# Setting: natural RNA segment, single round, ends assumed
# Shared flanks, not repeated: GGGAGUUCUACAGUCCGACGAUC … UGGAAUUCUCGGGUGCCAA
# Target sequence (chain): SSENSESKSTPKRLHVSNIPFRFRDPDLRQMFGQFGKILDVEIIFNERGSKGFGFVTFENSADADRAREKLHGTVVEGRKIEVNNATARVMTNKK
Sequence,RBNS enrichment (R)
CAGUGGGGCACCAGCCGGCCACACCCAUUGCCUCGGCUGCCUCUUCAUAGACUCUUGCUGCCCAGCCGUUGGGGCCUCAGUGUUUGGGGUGAGGGAAGCCACUUAAAGAC,0.301
ACUGUGCAUAGGGUAUCCGUUUCAGAGCCUGGUGUUGUGCUAUUUAGAUGUUUGUCUUGCACAACAUUGGCAUGAUUUUUCCGGGAGUUUCAUCAGAUCUGAUUUCUGAG,0.393
AUGGAAGAACAAACAAAAAGGACUUUCCAUGUAGCCUUCCUCCAUGUGGCCUAGUGAAACAUGGAUCUUGUUUAAAAGGCAUCUGAUUUUAUGCAGACACGUGUCUGAAA,0.293
UAUCAGGAACUUGAGCAUCUGCAGAUAUUGGUAUCGGAGGGCGGUCCUGGAACCAAGCAUCCACGGAUACUGAGGGGUGACAUUUCAUGAAGUGUAGAUCAUUGUAUUCA,0.532
GGGAGCCUCUAAAAAAAUUUUUCACUGGGGGCCACGUGGGUCAUUAGAAGCCAGAGCUCUCCUCCAGGCUCCUUCCCAGUGCCUAGAGGUGCUAUAGGAAACAUAGAUCC,0.317
GUUUAUUUAAAACUUUUUUUAAUCCAGAUGUAGACUAUAUUCUAAAAAAUAAAAACGCAGAUGUGUUAACAAAACUGGACAAGUGUGUGUUGCUCUUUAAUCCACCAAUG,0.41
AUCAUUAUGUUUAACAGGCACUUAAUCUCAGUAAAGUCAGUUGCCAGUUAAGUUCCACCCAGUAGUCAGUCCCCUUUGUAGUUAGUGGGAUUAUUUGAUAAUUGGUUAGA,0.7
UUUUGUAUGAAUUUUUAACCUUUUAACAAACUCCCAAAUCUGGUUGAUGCCUUUGACAGUGAUGAAAACGAUUUCACCACAUCUGAAUCCAGAGAAACCGGCUUUUUUUC,0.652
UUGCUUCUGCCCACCAAUCAGAGUCUGACUGGCAGUGUUAGUCUCCGACAGAGCUUGUACUAGGGCAGGAAUGGCAGAGACAGGGAUGAUGGUACCCAGAGUGGGCUGUG,0.964
GACAGUAUUUUGUUUUGCUUUGAUUUGGGGGGGAAGGGUUCAUCUUGCUUUUGGAGGUUGUUUUGGGGAAAAAACAGUUUAUAUAAACUGAUUUUUGUAGUUUUGGUAUU,2.6
CAGUCUGUAAGCAGGAGUCAUUGCCAUGUUGCCCUCCCUGCUGGUGUUACUGUGUUCCCUUAGAGCAUGUGGGCCAGUGGGCCACAUUCAUAAUGCAGUUGCCCAAGGCC,2.84
AAUGUAUGCUGUGAGACAUGAAAUUAAAACAGACCUAUGAAAUAAAUUAUUUUAAAACCAGAAGAUUCAGAUUUUCCAAUGUUAAAUUUUUUUGAUAAGGUGGCUGAAUG,1.26

# Study 3 — method: protein binding microarray; form: double-stranded DNA, one strand shown; medium: in vitro; concentration: not given; baseline: not given; direction: higher = stronger binding
# Target: Histone acetyltransferase KAT6A, both winged helices, GST fusion (KAT6A, Homo sapiens, UniProt Q92794, residues 1-181)
# Setting: 8-mer, flanks averaged, mean of 2 arrays, mostly near background
# Residues (chain): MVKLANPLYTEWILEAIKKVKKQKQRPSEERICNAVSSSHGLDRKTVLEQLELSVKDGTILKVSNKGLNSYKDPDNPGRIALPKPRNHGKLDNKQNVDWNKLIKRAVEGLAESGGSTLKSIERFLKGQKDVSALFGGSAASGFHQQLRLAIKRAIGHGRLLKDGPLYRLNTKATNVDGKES
Sequence,E-score
CCTCTCAA,-0.0974
ATGATCTA,-0.0504
GCGAGTAA,0.154
CAGCGGTA,0.201
AACATTTC,-0.112
AAATAGTG,-0.0628
ATCGGGGG,0.0117
AGTTTAGG,-0.19
CTTGGCTC,-0.215
CCTACACC,-0.215
CTAAATGC,-0.0644
CCCTGAAA,-0.211
GACGAATC,-0.0259
CACAAATG,-0.155
GGCGGCAC,0.231
AAGAAAGT,-0.118
TCCCGGCA,0.276
CCGATGCG,0.254
CTCTGAAA,-0.107
ATCGAGTA,-0.184
AGGTGCAG,-0.16
ATTTGTGG,-0.0681
CACGTCAA,-0.14
AGCTGCAG,-0.0702

# Study 4 — method: competition protein-binding microarray; form: double-stranded DNA, one strand shown; medium: in vitro; concentration: 2 µM; added: Cbf1 competitor, 0.05 µM; direction: higher = stronger binding; shared flanks, not repeated: … GTCTTGATTCGCTTGACGCTGCTG
# Target: Phosphate system positive regulatory protein PHO4, full length, GST-tagged (PHO4, Saccharomyces cerevisiae, UniProt P07270, residues 1-312)
# Setting: whole 60-bp probe, lowest competitor level
# Residues (chain): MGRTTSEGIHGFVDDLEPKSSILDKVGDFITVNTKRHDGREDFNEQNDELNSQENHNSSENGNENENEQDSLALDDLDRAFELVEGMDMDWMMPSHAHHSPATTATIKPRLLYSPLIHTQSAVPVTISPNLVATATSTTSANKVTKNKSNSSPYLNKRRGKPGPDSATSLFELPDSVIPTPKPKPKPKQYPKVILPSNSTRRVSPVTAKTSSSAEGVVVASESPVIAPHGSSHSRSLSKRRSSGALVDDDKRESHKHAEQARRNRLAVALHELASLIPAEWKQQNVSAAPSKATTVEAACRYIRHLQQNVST
Sequence,fluorescence intensity [a.u.]
GCGGACCAAAAATCGCACGTAGCGCGATATTGTCGG,6560
CTAACGAAGGTTTTTCACGTGAAGTACAAGCCAAGT,8720
GGTTATGGCCTGGATGACCTGTTTTCAATTCAGACA,3210
CGTTATGTCCCTAACGACGTGCAATAACTTGCGGAA,5890
CGGTTTTTGGCGCGTTTCGTGACTCGAACACCCAGT,4860
CAGATGAACTTCTTGAACGTGGACGCCGTATGCCAT,9560
TGAAGAAGGGGTAGACTCGGAAGCGTTCCAGCGTCT,2350
TCCATTCGAGACCTGTCCGTGATGGCGAGGACAAGA,3900
ACAAGGCTAAGGGCGCACATGTGTGGGACCCGGAGG,11300
CTTTCCCGATCTTGTCACTGAACTTTAGCACATTTG,3700
AAAGCGGTAATTTGTCACGATACTTCACATATCTAT,5260
CTTCTGTAAATTTGTCACGTCACTTGACGCGCCCCG,4630
AAAGCGGTAATTTGTACCGTGGGTGCAGATATCTAT,5720
CTTCTGTAAATTTGGTGGGTGGGTGGACGCGCCCCG,4990
GTTACTGGTGGTTGTCATGTTTCCCAAGTTTACGCC,4740
CTTAATTGCAAGATTCAGCTGACTGCATATGGGCAG,4440
GAGCGGGATTCCCATCACGTGGTGATGGGATAATGC,14200
CTCTGAGCACTCCATCACCTGAGTTAGGTAATACAT,4560

# Study 5 — method: protein-binding microarray; form: double-stranded DNA, one strand shown; medium: in vitro; concentration: 250 nM; setting: 60-bp whole probe; added: salmon DNA 0.4 mg/ml; baseline: random background probes; direction: higher = stronger binding; shared flanks, not repeated: GCCTAGCAC … GTCTTGATTCGCTTGACGCTGCTG
# Target: Interferon regulatory factor 7, full length, phosphomimetic (IRF7, Homo sapiens, UniProt Q92985, residues 1-503, S101K/S471D/S472D/S475D/S476D/S477D/S483D/S484D/S487D)
# UniProt Q92985, sequence (whole entry, unmodified, looked up): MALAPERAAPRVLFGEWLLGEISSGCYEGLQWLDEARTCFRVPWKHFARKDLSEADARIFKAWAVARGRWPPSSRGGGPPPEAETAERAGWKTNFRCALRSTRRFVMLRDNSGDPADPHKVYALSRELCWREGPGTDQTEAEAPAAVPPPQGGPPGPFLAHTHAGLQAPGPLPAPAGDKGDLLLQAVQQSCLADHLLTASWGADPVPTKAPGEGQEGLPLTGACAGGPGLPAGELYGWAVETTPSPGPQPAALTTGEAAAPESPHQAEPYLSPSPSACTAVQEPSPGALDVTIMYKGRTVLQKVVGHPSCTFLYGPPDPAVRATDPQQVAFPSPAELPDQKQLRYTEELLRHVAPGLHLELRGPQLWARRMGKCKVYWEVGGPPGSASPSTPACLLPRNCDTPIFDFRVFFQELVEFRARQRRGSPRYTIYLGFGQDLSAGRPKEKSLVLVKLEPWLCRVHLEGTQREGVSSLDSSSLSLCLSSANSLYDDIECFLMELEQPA
Sequence,log fluorescence [z-score]
TAAGGTTTCGGTATCGGTTAGTGCTAG,11.3
AACGGTATCGACTTTCGGGACGTGCTA,1.5
GACGATCACAGTATCGAGACGTGCTAG,0.0592
GCCGATTTCAGTCTCGAGACGTGCTAG,1.02
GACGGTTTCGTACTGGGGACGTGCTAG,4.47
TTAGATTTCGGCTTTCGATTAGTGCTA,1.79
GTTCTTATCCTTCCCCTCTAGTGCTAG,1.53
TCATCTTCAGGTTCTCCCACTGTGCTA,0.301
GTAGATATCAGTCTCGATTAGTGCTAG,1.16
ACCCGAGTCCCTATCTCCTCGTGCTAG,0.355
ATAGGACTGCTACTGCTTTAGTGCTAG,-0.528
TCATTTTTGCTTTCTTTACTGTGCTAG,1.81
TTAGGTTTCCTACCGCTTTAGTGCTAG,0.878
TCATGGTTCTTGCTTGGTACTGTGCTA,-0.17
TCAAATTTTTGCATCGTACTGTGCTAG,-0.15
TTAGATTTCGGGACTGGACTAGTGCTA,-0.119
GATATTATATCTGTGTTATTGTGCTAG,0.585
AGCACTCTTCTTTTTTTTCTGTGCTAG,0.296
TTACATTTCGGGACTGGATTAGTGCTA,0.825

# Some of these lines once more (study 3):
Sequence,E-score
CAGCGGTA,0.201
AACATTTC,-0.112
AAATAGTG,-0.0628
ATCGGGGG,0.0117
AGTTTAGG,-0.19
CTTGGCTC,-0.215
CCTACACC,-0.215
CTAAATGC,-0.0644
CCCTGAAA,-0.211
GACGAATC,-0.0259
CACAAATG,-0.155
GGCGGCAC,0.231
